Values quoted from earlier work that unrelated publications cite.
Each line is one published result; not all experiments were run side by side. Values after ≈ are worked out from the molar mass of the structure shown.
CYP3A4: Cytochrome P450 3A4 (CYP3A4, Homo sapiens, UniProt P08684)
Chain of UniProt P08684 (whole entry, looked up): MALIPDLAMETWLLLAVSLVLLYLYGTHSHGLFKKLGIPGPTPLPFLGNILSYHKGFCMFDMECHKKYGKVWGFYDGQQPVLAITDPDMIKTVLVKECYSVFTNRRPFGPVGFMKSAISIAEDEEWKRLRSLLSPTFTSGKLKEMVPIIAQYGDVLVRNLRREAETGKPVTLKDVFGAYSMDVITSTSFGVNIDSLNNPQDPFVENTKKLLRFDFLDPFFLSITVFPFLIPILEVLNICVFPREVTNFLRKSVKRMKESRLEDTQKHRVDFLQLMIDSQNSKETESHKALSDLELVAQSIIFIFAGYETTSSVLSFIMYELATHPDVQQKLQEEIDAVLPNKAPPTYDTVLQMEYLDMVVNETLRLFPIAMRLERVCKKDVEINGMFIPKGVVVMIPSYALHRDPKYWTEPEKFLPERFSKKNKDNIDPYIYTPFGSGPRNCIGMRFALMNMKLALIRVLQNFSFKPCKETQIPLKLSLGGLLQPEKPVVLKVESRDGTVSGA
Chain of UniProt Q9H2K8 (whole entry, looked up): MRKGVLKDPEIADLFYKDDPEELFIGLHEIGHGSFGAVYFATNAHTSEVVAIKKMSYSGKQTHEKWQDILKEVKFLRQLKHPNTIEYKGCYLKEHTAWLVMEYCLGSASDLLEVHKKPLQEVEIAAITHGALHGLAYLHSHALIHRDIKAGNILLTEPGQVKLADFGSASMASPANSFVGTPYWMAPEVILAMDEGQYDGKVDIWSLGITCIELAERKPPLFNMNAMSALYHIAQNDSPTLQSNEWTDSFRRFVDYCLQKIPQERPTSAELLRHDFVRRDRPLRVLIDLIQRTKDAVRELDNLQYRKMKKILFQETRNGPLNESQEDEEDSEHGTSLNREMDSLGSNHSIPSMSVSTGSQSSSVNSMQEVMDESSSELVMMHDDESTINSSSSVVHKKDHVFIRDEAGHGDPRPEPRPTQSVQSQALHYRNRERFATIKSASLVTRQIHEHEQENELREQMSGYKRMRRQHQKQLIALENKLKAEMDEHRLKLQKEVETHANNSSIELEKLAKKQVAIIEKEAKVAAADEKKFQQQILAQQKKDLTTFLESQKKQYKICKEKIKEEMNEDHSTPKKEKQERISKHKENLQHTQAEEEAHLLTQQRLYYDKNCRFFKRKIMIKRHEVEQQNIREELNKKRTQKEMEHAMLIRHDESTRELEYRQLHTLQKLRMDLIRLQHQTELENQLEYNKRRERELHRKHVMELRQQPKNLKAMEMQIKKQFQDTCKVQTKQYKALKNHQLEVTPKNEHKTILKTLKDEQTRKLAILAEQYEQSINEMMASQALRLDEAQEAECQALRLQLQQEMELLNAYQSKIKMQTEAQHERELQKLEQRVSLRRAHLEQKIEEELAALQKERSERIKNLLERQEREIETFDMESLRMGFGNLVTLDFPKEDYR
Chain of UniProt Q06278 (whole entry, looked up): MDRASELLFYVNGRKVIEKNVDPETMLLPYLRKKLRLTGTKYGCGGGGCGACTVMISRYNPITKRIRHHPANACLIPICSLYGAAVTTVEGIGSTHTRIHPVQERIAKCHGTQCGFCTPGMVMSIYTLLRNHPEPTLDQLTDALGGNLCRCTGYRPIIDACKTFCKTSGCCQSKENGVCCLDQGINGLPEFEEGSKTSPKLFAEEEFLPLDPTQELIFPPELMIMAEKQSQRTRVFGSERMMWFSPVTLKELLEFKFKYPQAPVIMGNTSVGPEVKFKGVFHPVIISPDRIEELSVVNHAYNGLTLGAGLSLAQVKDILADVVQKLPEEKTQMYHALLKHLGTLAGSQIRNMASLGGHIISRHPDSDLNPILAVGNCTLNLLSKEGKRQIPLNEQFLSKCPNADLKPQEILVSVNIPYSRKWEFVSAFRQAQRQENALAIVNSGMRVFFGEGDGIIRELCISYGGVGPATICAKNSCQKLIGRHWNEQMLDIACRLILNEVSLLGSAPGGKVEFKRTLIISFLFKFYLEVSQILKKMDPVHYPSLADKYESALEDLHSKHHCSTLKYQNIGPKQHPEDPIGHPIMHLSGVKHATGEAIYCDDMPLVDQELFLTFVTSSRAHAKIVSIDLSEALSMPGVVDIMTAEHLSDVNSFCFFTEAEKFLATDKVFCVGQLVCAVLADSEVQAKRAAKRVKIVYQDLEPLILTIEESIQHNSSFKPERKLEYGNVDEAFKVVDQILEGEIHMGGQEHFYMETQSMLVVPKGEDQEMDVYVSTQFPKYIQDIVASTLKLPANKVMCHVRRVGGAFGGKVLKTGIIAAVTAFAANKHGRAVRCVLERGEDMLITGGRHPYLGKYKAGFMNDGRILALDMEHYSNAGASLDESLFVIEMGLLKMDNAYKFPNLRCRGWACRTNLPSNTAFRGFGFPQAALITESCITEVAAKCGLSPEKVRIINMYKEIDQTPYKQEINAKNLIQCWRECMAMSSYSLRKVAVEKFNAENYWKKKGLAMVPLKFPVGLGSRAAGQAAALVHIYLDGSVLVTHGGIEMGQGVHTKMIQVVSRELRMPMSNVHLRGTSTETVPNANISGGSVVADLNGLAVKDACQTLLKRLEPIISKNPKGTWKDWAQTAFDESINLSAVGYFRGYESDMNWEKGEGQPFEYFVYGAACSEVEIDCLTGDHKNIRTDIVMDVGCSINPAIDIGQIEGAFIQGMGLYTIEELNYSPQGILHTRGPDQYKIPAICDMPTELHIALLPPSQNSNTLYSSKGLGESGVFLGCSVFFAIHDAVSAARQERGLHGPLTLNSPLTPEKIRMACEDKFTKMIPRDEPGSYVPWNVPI

Cc1ccc(C)c(OCCCC(C)(C)C(=O)O[C@@H]2O[C@H](C(=O)O)[C@@H](O)[C@H](O)[C@H]2O)c1
Ki (OATP1B1): 7900 to 24300 nM

C=CC(O)CO (stereo not shown)
Km (CYP2E1; substrate; pooled human liver microsomes): ~1000 µM

CC(=O)Nc1ccc(O)cc1
Km (UGT2B15; substrate): 23000 µM

COc1ccc2nc([S@+]([O-])Cc3ncc(C)c(OC)c3C)[nH]c2c1
fraction of intrinsic clearance (CYP3A; sulfone formation; in vitro): 2%

Cc1nc2ccc(F)cc2n1-c1nc(N)c(F)c(Nc2ccc(C(F)(F)F)cc2)n1
Ki (CYP1A2 (human); inhibitor; pooled human liver microsomes): 74 nM

C=CC(=O)Nc1cc(Nc2nccc(-c3cn(C)c4ccccc34)n2)c(OC)cc1N(C)CCN(C)C
metabolism contribution (CYP2A6): 15.5%

O=C(O)[C@H]1O[C@@H](OC(=O)[C@H](c2ccccc2Cl)N2CCc3sccc3C2)[C@H](O)[C@@H](O)[C@@H]1O
kinact (CYP2C8 (human); inactivator): 2.82 h⁻¹

O=C(O)CN(CCN(CC(=O)O)CC(=O)O)CC(=O)O
log KH2 (protonation constant; 0.15 M NaCl): 5.99

CNCc1cn(S(=O)(=O)c2cccc(F)c2)c(-c2ccc(F)cc2F)c1OC
IC50 (OCT2; transporter uptake, inhibitor): 80200 nM

COc1cc(N2CCC(N3CCN(C)CC3)CC2)ccc1Nc1ncc(Cl)c(Nc2ccccc2P(C)(C)=O)n1
AUCinf decrease (CYP3A (human); drug interaction; human; 180 mg, with: rifampin 600 mg; reference: compound alone): 80%

C[C@H]1CN(C2COC2)CCN1c1ccc(Nc2cc(-c3ccnc(N4CCn5c(cc6c5CC(C)(C)C6)C4=O)c3CO)cn(C)c2=O)nc1
IC50 (OATP1B3 (SLCO1B3) OATP1B1; literature geometric mean): 19700 nM

CNC(C)C1CCC(N)C(OC2C(N)CC(N)C(OC3OCC(C)(O)C(NC)C3O)C2O)O1 (stereo not shown)
MIC (Escherichia coli; clinical isolate RKI-No_314/16): 2 µg/mL (≈ 4.19 µM)

COc1ccc2cc(OCC3(C(=O)O)CN(C(=O)c4ccc(F)cc4)C3)ccc2c1
transporter inhibition (OATP1B1, OATP1B3 and MATE1; inhibitor; concentration not given): inhibited

CN(C)C(=N)N=C(N)N
CLint (OCT2; healthy human): 256 mL/min

CC1(C)S[C@@H]2[C@H](NC(=O)[C@H](N)c3ccccc3)C(=O)N2[C@H]1C(=O)O
MIC (Escherichia coli; clinical isolate RKI-No_525/16): ≤ 4 µg/mL

CC(O)c1cc(C(=O)N[C@@H](C)Cn2ccc(-c3ccc(C#N)c(Cl)c3)n2)[nH]n1 (stereo partly shown)
IC50 (OATP1B1; literature maximum): 16800 nM

C=C[C@@H]1C[C@]1(NC(=O)[C@@H]1C[C@@H]2CN1C(=O)[C@H](C(C)(C)C)NC(=O)O[C@@H]1C[C@H]1CCCCCc1nc3ccc(OC)cc3nc1O2)C(=O)NS(=O)(=O)C1CC1
IC50 (human BSEP; ATP-dependent uptake, inhibitor; with: taurocholic acid): 150 nM

CC(=O)C(C)n1ncn(-c2ccc(N3CCN(c4ccc(OC[C@H]5CO[C@](Cn6cncn6)(c6ccc(Cl)cc6Cl)O5)cc4)CC3)cc2)c1=O (stereo partly shown)
Ki (CYP3A4; enzyme activity, competitive inhibitor): 5.12 nM

COC[C@H]1C[C@@H](c2ncc(-c3ccc4c(c3)COc3cc5c(ccc6nc([C@@H]7CC[C@H](C)N7C(=O)[C@@H](NC(=O)OC)C(C)C)[nH]c65)cc3-4)[nH]2)N(C(=O)[C@H](NC(=O)OC)c2ccccc2)C1
IC50 (OATP1B3; literature maximum): 682 nM

CC(O)C(C)n1ncn(-c2ccc(N3CCN(c4ccc(OCC5COC(Cn6cncn6)(c6ccc(Cl)cc6Cl)O5)cc4)CC3)cc2)c1=O (stereo not shown)
kcat (CYP3A4; substrate): 0.000333 s⁻¹

O=C(O)CN1CCN(CC(=O)O)CCN(CC(=O)O)CC1
log K (Cu(II); stability constant): 19.8

Nc1cc(C(F)(F)F)c(-c2nc(N3CCOCC3)nc(N3CCOCC3)n2)cn1
remaining activity (Serine/threonine-protein kinase TAO3 (TAOK3, Homo sapiens, UniProt Q9H2K8); enzyme activity; 10 µM; reference: untreated): 87%

O=C1Nc2ccc(Cl)cc2[C@@](C#CC2CC2)(C(F)(F)F)O1
CLint (CYP2A6): 0.47 µL/min/mg protein

C=C[C@@H]1C[C@]1(NC(=O)[C@@H]1C[C@@H]2CN1C(=O)[C@H](C(C)(C)C)NC(=O)O[C@@H]1C[C@H]1CCCCCc1nc3ccc(OC)cc3nc1O2)C(=O)NS(=O)(=O)C1CC1
IC50 (OATP1B3 (SLCO1B3) OATP1B3; literature geometric mean): 1220 nM

N#CCNC(=O)c1ccc(-c2ccnc(Nc3ccc(N4CCOCC4=O)cc3)n2)cc1
inhibition (CYP3A4/5; inhibitor, in vitro; concentration not given): no inhibition

CN/C(=N/CCSCc1nc[nH]c1C)NC#N
Ki (OCT2; inhibitor): 250 nM

CO[C@H]1C[C@@H]2CC[C@@H](C)[C@@](O)(O2)C(=O)C(=O)N2CCCC[C@H]2C(=O)O[C@H]([C@H](C)C[C@@H]2CC[C@@H](O)[C@H](OC)C2)CC(=O)[C@H](C)/C=C(\C)[C@@H](O)[C@@H](OC)C(=O)[C@H](C)C[C@H](C)/C=C/C=C/C=C/1C
fraction unbound in microsomal incubation (recombinant human CYP3A4): 0.43

OC(Cn1cncn1)(Cn1cncn1)c1ccc(F)cc1F
Ki (CYP2C19 human; inhibitor): 2000 nM

Cc1ccc(C)c(OCCCC(C)(C)C(=O)O)c1
IC50 (OATP1B3; literature maximum): 910000 nM

CC(C)n1c(=O)n(C)c2cnc3cc(F)c(-c4ccc(OCCCN5CCCCC5)nc4)cc3c21
CLint (Aldehyde oxidase (Homo sapiens, UniProt Q06278); substrate; human liver cytosol): 3.5 mL/min/mg protein

C#C[C@]1(O)CC[C@H]2[C@@H]3CCc4cc(O)ccc4[C@H]3CC[C@@]21C
Km (UGT1A1; substrate; human liver microsomes): 19.2 µM

CO[C@H]1/C=C/O[C@@]2(C)Oc3c(C)c(O)c4c(O)c(c(/C=N/N5CCN(C)CC5)c(O)c4c3C2=O)NC(=O)/C(C)=C\C=C\[C@H](C)[C@H](O)[C@@H](C)[C@@H](O)[C@@H](C)[C@H](OC(C)=O)[C@@H]1C
Ki (BSEP; inhibitor): 31000 nM

CO[C@H]1/C=C/O[C@@]2(C)Oc3c(C)c(O)c4c(O)c(c(/C=N/N5CCN(C)CC5)c(O)c4c3C2=O)NC(=O)/C(C)=C\C=C\[C@H](C)[C@H](O)[C@@H](C)[C@@H](O)[C@@H](C)[C@H](OC(C)=O)[C@@H]1C
Ki (P-glycoprotein (human); competitive inhibitor): 169000 nM

CO[C@H]1/C=C/O[C@@]2(C)Oc3c(C)c(O)c4c(O)c(c(/C=N/N5CCN(C)CC5)c(O)c4c3C2=O)NC(=O)/C(C)=C\C=C\[C@H](C)[C@H](O)[C@@H](C)[C@@H](O)[C@@H](C)[C@H](OC(C)=O)[C@@H]1C
IC50 (OATP1B3 (SLCO1B3) OATP1B3; literature geometric mean): 1480 nM
